Measured values pooled from the literature.
A part holds a random share of what one study measured.
Sequence of UniProt P53667 (whole entry, looked up): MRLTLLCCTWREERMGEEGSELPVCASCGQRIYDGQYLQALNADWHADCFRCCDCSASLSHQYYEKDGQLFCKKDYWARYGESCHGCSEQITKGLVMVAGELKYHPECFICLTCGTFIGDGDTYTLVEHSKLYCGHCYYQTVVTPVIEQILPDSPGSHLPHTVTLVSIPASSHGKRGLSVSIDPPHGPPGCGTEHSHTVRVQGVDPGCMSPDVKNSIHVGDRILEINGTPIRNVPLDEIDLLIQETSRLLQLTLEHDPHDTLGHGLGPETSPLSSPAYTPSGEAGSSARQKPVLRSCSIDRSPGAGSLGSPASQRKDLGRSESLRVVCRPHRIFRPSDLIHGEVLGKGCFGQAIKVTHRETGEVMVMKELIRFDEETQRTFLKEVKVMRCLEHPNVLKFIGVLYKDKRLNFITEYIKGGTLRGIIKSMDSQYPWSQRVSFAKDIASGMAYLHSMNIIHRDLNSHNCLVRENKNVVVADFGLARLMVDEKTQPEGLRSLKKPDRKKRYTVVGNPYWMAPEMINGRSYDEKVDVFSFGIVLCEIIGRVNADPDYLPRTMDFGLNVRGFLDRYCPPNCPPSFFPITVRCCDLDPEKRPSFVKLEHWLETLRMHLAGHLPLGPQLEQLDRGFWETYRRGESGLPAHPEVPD
Sequence of UniProt P42679 (whole entry, looked up): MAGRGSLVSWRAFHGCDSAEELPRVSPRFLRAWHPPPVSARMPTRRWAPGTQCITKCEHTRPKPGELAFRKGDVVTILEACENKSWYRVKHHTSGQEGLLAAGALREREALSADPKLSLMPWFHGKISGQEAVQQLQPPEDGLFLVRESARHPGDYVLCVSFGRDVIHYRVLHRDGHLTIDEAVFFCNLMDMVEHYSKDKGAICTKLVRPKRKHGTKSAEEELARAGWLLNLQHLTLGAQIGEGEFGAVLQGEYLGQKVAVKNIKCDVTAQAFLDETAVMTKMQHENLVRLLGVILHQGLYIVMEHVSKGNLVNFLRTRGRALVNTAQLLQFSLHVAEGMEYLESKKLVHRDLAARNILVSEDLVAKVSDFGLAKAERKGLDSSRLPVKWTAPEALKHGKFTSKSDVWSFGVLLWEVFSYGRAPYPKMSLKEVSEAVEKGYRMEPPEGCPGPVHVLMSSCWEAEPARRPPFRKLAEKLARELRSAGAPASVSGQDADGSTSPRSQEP
Sequence of UniProt P42336 (whole entry, unmodified, looked up): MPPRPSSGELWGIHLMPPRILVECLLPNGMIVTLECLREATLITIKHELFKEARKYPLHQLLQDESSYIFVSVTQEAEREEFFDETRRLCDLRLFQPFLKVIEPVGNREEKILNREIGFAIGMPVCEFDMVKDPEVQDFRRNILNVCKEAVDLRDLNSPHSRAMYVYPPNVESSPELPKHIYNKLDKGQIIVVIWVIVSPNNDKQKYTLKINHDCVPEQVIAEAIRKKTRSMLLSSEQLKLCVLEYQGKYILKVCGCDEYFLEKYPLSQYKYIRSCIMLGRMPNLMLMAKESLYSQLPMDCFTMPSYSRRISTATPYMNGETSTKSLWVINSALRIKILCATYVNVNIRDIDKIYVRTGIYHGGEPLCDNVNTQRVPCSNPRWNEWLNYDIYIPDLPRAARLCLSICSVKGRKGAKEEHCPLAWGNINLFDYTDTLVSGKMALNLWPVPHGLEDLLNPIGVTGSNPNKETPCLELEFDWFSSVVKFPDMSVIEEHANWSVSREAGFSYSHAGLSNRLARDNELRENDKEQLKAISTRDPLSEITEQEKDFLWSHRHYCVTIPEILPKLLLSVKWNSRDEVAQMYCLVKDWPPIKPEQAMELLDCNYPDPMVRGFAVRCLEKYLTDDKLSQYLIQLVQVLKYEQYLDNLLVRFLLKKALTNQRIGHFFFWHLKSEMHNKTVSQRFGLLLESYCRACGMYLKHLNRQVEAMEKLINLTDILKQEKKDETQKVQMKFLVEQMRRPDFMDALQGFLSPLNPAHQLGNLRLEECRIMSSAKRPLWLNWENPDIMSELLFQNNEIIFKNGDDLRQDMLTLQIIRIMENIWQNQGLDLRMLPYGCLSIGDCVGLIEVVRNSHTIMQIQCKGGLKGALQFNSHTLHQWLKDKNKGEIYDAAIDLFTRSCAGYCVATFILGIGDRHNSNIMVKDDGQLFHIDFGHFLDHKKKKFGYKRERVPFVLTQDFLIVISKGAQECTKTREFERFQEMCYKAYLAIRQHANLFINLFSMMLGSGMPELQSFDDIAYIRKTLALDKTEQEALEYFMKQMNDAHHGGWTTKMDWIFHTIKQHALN
Sequence of UniProt O15264 (whole entry, looked up): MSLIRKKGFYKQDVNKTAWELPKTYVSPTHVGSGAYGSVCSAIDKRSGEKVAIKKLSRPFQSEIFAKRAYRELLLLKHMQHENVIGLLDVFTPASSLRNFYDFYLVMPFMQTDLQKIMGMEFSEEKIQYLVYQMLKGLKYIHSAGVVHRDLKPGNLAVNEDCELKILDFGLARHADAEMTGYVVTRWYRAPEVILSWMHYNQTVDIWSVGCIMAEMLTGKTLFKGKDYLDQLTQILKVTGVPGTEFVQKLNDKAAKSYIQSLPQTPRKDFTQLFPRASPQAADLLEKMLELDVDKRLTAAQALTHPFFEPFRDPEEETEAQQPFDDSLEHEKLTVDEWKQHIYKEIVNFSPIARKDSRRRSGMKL
Sequence of UniProt O00506 (whole entry, looked up): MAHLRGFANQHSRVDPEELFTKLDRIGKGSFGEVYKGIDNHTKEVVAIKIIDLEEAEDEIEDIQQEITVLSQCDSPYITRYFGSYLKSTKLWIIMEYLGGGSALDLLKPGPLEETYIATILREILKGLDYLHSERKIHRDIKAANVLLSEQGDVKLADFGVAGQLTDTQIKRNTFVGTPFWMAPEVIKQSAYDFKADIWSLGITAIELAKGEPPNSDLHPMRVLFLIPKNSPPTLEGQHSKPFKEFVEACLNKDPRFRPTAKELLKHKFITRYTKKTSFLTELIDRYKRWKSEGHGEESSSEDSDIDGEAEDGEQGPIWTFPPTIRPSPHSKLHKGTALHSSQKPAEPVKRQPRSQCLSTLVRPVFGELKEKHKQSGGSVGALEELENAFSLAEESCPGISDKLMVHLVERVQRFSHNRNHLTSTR
Sequence of UniProt Q13546 (whole entry, looked up): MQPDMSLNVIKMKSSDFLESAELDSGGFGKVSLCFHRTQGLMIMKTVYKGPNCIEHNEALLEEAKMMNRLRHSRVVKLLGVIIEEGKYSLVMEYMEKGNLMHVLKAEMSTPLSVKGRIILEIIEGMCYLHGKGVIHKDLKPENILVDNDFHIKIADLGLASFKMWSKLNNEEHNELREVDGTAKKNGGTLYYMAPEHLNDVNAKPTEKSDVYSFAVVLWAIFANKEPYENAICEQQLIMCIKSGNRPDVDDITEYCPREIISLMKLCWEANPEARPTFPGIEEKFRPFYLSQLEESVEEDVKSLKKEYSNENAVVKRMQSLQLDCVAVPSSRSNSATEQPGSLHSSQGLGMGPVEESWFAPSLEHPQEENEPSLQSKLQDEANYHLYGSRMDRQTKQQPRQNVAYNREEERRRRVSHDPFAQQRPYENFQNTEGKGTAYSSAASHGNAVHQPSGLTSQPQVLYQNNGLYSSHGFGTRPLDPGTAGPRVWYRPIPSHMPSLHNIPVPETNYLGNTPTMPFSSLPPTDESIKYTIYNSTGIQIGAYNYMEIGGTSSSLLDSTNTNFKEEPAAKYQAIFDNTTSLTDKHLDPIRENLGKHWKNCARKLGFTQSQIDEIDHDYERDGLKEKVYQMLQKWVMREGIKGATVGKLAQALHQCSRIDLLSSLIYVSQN
Sequence of UniProt P27448 (whole entry, looked up): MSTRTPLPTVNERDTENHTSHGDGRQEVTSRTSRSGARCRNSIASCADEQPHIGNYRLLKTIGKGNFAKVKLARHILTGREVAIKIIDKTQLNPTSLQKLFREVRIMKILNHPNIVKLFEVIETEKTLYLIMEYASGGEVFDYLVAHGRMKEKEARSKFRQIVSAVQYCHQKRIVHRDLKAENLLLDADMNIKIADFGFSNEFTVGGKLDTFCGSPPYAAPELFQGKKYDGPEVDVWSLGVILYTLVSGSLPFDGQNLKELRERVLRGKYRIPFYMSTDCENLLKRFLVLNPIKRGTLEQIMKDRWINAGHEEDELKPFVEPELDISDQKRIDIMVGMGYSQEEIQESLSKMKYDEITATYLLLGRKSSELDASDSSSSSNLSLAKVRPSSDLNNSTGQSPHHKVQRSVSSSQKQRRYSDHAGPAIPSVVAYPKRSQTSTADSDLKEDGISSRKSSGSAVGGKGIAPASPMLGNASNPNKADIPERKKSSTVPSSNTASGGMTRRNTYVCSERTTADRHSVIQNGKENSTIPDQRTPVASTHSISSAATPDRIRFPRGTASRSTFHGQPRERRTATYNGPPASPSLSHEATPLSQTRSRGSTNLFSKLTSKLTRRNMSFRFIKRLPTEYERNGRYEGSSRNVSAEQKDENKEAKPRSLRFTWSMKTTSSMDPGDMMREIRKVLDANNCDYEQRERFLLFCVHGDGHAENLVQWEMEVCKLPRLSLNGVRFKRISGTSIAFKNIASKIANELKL
Sequence of UniProt P31749 (whole entry, looked up): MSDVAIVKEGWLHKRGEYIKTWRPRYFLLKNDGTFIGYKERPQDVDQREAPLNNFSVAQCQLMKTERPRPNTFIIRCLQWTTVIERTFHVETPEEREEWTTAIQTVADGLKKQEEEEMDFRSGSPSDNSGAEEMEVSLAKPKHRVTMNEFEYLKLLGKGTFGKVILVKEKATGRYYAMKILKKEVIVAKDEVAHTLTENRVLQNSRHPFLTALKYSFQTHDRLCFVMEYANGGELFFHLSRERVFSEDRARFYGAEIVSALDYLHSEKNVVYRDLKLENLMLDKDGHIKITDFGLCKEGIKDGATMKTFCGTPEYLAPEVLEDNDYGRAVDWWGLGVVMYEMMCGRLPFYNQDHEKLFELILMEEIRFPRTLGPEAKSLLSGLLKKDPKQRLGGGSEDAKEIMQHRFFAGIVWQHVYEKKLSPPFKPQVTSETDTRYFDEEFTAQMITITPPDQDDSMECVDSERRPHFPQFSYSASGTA

Block 1
SMILES: CS(=O)(=O)c1cc(C2(NC(=O)c3cncc4c3cnn4-c3ccc(F)cc3)CC2)ccn1
Concentration: 1 µM
Measurement: remaining binding
Megakaryocyte-associated tyrosine-protein kinase (MATK, Homo sapiens, UniProt P42679); cell-free assay, competition with immobilised ligand: 100%
Serine/threonine-protein kinase mTOR (MTOR, Homo sapiens, UniProt P42345); cell-free assay, competition with immobilised ligand: 100%
Phosphatidylinositol 4,5-bisphosphate 3-kinase catalytic subunit alpha isoform (PIK3CA, Homo sapiens, UniProt P42336, H1047Y); cell-free assay, competition with immobilised ligand: 100%
Activin receptor type-1 (ACVR1, Homo sapiens, UniProt Q04771); cell-free assay, competition with immobilised ligand: 100%
Receptor-interacting serine/threonine-protein kinase 1 (RIPK1, Homo sapiens, UniProt Q13546); cell-free assay, competition with immobilised ligand: 100%
Ribosomal protein S6 kinase alpha-6, N-terminal kinase domain (RPS6KA6, Homo sapiens, UniProt Q9UK32); cell-free assay, competition with immobilised ligand: 97%
LIM domain kinase 1 (LIMK1, Homo sapiens, UniProt P53667); cell-free assay, competition with immobilised ligand: 100%
Angiopoietin-1 receptor (TEK, Homo sapiens, UniProt Q02763); cell-free assay, competition with immobilised ligand: 100%
Insulin-like growth factor 1 receptor (IGF1R, Homo sapiens, UniProt P08069); cell-free assay, competition with immobilised ligand: 100%
Epidermal growth factor receptor (EGFR, Homo sapiens, UniProt P00533, del747-750/T751S); cell-free assay, competition with immobilised ligand: 100%
Tyrosine-protein kinase ABL1, phosphorylated (ABL1, Homo sapiens, UniProt P00519, T315I); cell-free assay, competition with immobilised ligand: 73%
Interleukin-1 receptor-associated kinase 4 (IRAK4, Homo sapiens, UniProt Q9NWZ3); cell-free assay, competition with immobilised ligand: 100%
Mitogen-activated protein kinase kinase kinase 14 (MAP3K14, Homo sapiens, UniProt Q99558); cell-free assay, competition with immobilised ligand: 61%
Serine/threonine-protein kinase DCLK1 (DCLK1, Homo sapiens, UniProt O15075); cell-free assay, competition with immobilised ligand: 75%
Muscle, skeletal receptor tyrosine-protein kinase (MUSK, Homo sapiens, UniProt O15146); cell-free assay, competition with immobilised ligand: 68%
Receptor-type tyrosine-protein kinase FLT3 (FLT3, Homo sapiens, UniProt P36888, D835Y); cell-free assay, competition with immobilised ligand: 98%
Proto-oncogene tyrosine-protein kinase ROS (ROS1, Homo sapiens, UniProt P08922); cell-free assay, competition with immobilised ligand: 100%
Cyclin-dependent kinase 13 (CDK13, Homo sapiens, UniProt Q14004); cell-free assay, competition with immobilised ligand: 100%
Fibroblast growth factor receptor 2 (FGFR2, Homo sapiens, UniProt P21802); cell-free assay, competition with immobilised ligand: 100%
AP2-associated protein kinase 1 (AAK1, Homo sapiens, UniProt Q2M2I8); binding: 94%
Mitogen-activated protein kinase 13 (MAPK13, Homo sapiens, UniProt O15264); cell-free assay, competition with immobilised ligand: 93%
Receptor tyrosine-protein kinase erbB-3 (ERBB3, Homo sapiens, UniProt P21860); cell-free assay, competition with immobilised ligand: 100%

Block 2
Organism: Plasmodium berghei
Mode: inhibitor
Cell line: Huh-7
Strain: GFP-expressing sporozoites, liver stage
Concentration: 10 µM
Time: 24 h
Reference: untreated control
Measurement: infection rate
O=C1C(O)=C([C@H]2CC[C@H](c3ccc(Cl)cc3)CC2)C(=O)c2ccccc21: 9.06%
O=c1oc2ccccc2c(O)c1Cc1c(O)c2ccccc2oc1=O: 91.9%
Nc1[nH]cnc2ncnc1-2: 107%
Nc1nc2c(ncn2COCCO)c(=O)[nH]1: 35.1%
N[C@@H](C(=O)N[C@@H]1C(=O)N2C(C(=O)O)=C(Cl)CS[C@H]12)c1ccccc1: 110%
CCN(CCCc1ccccc1)CCCc1ccccc1: 94.3%
CCOC(=O)OC(C)OC(=O)[C@@H]1N2C(=O)[C@@H](NC(=O)[C@H](N)c3ccccc3)[C@H]2SC1(C)C (stereo partly shown): 84.8%
C1CCC(C(CC2CCCCN2)C2CCCCC2)CC1 (stereo not shown): 8.18%
CN(C)CCCC1(c2ccc(F)cc2)OCc2cc(C#N)ccc21 (stereo not shown): 104%
C[C@]12CC[C@@H]3c4ccc(O)cc4CC[C@H]3[C@@H]1CC[C@@H]2OC(=O)CCC1CCCC1: 105%
C[C@H]1C[C@H]2[C@@H]3CCC4=CC(=O)C=C[C@]4(C)[C@@]3(F)[C@@H](O)C[C@]2(C)[C@@]1(O)C(=O)CO: 104%

Block 3
SMILES: CC(=O)N[C@@H](Cc1c[nH]c2ccccc12)C(=O)N[C@@H](CCC(=O)C=[N+]=[N-])C(=O)OC(C)C
Dose: dose not given
Reference: vehicle
Measurement: log2 fold change
item: N-acetyl-beta-alanine; mouse, EL4 tumour-bearing, EL4 tumour: -0.0834
item: isobutyrylcarnitine; mouse, EL4 tumour, tumour: -0.332
item: hydroxy-N6,N6,N6-trimethyllysine; Mus musculus, EL4 tumour: 0.0877
item: urate; mouse, EL4 tumour-bearing, EL4 tumour: 0.544
item: glucuronate; mouse, EL4 tumour-bearing, EL4 tumour: 0.0398
item: N-monomethylarginine; mouse, EL4 tumour-bearing, EL4 tumour: 0.317
item: cysteine; mouse, EL4 tumour-bearing, EL4 tumour: -0.401
item: malate; mouse, EL4 tumour-bearing, EL4 tumour: -0.34
item: 2'-deoxyadenosine; mouse, EL4 tumour-bearing, EL4 tumour: -0.133
item: pyridoxamine; mouse, EL4 tumour-bearing, EL4 tumour: 0.00697
item: phosphopantetheine; mouse, EL4 tumour-bearing, EL4 tumour: -1.89

Block 4
SMILES: Cc1cc(Nc2nc(-c3ccccc3)nc3ccccc23)n[nH]1
Effect on: enzyme activity
Mode: inhibitor
Concentration: 0.5 µM
Reference: control
Measurement: remaining activity
Insulin receptor (INSR, Homo sapiens, UniProt P06213): 31.6%
Cyclin-dependent kinase 3, with cyclin E (CDK3, Homo sapiens, UniProt Q00526): 85%
Serine/threonine-protein kinase MRCK alpha (CDC42BPA, Homo sapiens, UniProt Q5VT25): 108%
RAC-alpha serine/threonine-protein kinase (AKT1, Homo sapiens, UniProt P31749): 107%
Serine/threonine-protein kinase Nek11 (NEK11, Homo sapiens, UniProt Q8NG66): 105%
PAS domain-containing serine/threonine-protein kinase (PASK, Homo sapiens, UniProt Q96RG2): 96.4%
cAMP-dependent protein kinase catalytic subunit PRKX (PRKX, Homo sapiens, UniProt P51817): 101%
Serine/threonine-protein kinase 25 (STK25, Homo sapiens, UniProt O00506): 86.7%
ALK tyrosine kinase receptor (ALK, Homo sapiens, UniProt Q9UM73): 75.9%
MAP/microtubule affinity-regulating kinase 3 (MARK3, Homo sapiens, UniProt P27448): 89%
Tyrosine-protein kinase Fyn (FYN, Homo sapiens, UniProt P06241): 40%
Megakaryocyte-associated tyrosine-protein kinase (MATK, Homo sapiens, UniProt P42679): 96.1%
Serine/threonine-protein kinase NLK (NLK, Homo sapiens, UniProt Q9UBE8): 94.7%
Serine/threonine-protein kinase TAO3 (TAOK3, Homo sapiens, UniProt Q9H2K8): 86.9%
Vascular endothelial growth factor receptor 3 (FLT4, Homo sapiens, UniProt P35916): 44.9%
Tyrosine-protein kinase Fer (FER, Homo sapiens, UniProt P16591): 31.6%
Tyrosine-protein kinase Fgr (FGR, Homo sapiens, UniProt P09769): 54.8%
Serine/threonine-protein kinase N1 (PKN1, Homo sapiens, UniProt Q16512): 89.9%
Tyrosine-protein kinase ITK/TSK (ITK, Homo sapiens, UniProt Q08881): 45.4%
LIM domain kinase 1 (LIMK1, Homo sapiens, UniProt P53667): 59.6%
